Measurements from different studies.
Numbers after ± are the reported error.
rep main protease: Replicase polyprotein 1ab, main protease (rep, Severe acute respiratory syndrome coronavirus 2, UniProt P0DTD1)
rep papain-like protease: Replicase polyprotein 1ab, papain-like protease (rep, Severe acute respiratory syndrome coronavirus 2, UniProt P0DTD1)
rep methyltransferase: Replicase polyprotein 1ab, methyltransferase (rep, Severe acute respiratory syndrome coronavirus 2, UniProt P0DTD1)
rep nsp14: Replicase polyprotein 1ab, nsp14 (rep, Severe acute respiratory syndrome coronavirus 2, UniProt P0DTD1)
rep nsp13 helicase: Replicase polyprotein 1ab, nsp13 helicase (rep, Severe acute respiratory syndrome coronavirus 2, UniProt P0DTD1)
Spike glycoprotein: Spike glycoprotein (Severe acute respiratory syndrome coronavirus 2, UniProt P0DTC2)

O=C(Nc1ccccc1-c1cn2c(CN3CCNCC3)csc2n1)c1cnc2ccccc2n1 — IC50 (rep main protease; enzyme activity, inhibitor): > 128 µM
CC(C)n1c[n+](C(C)C)c2ccccc21.[Cl][Ag] — IC50 (rep main protease; enzyme activity, inhibitor): > 50 µM
Nc1ncnc2c([C@@H]3N[C@H](CO)[C@@H](O)[C@H]3O)c[nH]c12 — inhibition (Marburg virus; viral RNA in cell lysate; HeLa, Musoke; 25 µM, 24 h): 59.8%
CCC(C(=O)Nc1cc(NC2CCNC2)ccc1C)n1cc(Cl)cc2nc(SCc3ccc(F)cc3)nc1-2 (stereo not shown) — IC50 (rep papain-like protease; enzyme activity, inhibitor): 0.074 µM
N#Cc1ccc(N2N=C(c3ccc(C(=O)O)cc3)CC2C2CCCCC2)cc1Cl (stereo not shown) — IC50 (rep methyltransferase; enzyme activity, inhibitor): > 100 µM
O=c1cc(-c2ccc(O)cc2)oc2cc(O[C@@H]3O[C@H](CO)[C@@H](O)[C@H](O)[C@H]3O)cc(O)c12 — IC50 (rep main protease; enzyme activity, inhibitor; with: fluorogenic substrate): 14.3 ± 0.61 µM
NCCOc1cc(C(=O)Nc2cc(OCCN)c3ccccc3n2)nc(C(=O)Nc2cc(OCCN)c3ccccc3n2)c1 — IC50 (rep methyltransferase; enzyme activity, inhibitor; pH 7.5): < 10 µM
Cn1cnc(Cn2c(=O)[nH]/c(=N\c3cc4cn(C)nc4cc3Cl)n(Cc3cc(F)c(F)cc3F)c2=O)n1 — patients with adverse event (human, normal renal function; oral, 375 mg, decreased GFR TEAE, Mild severity): 0%
CCC(C(=O)Nc1cc(NC2CCNCC2)ccc1C)n1cc(Br)cc2nc(SCc3ccc(F)cc3)nc1-2 (stereo not shown) — IC50 (rep papain-like protease; enzyme activity, inhibitor): 0.052 µM
COc1ncc(-c2ccc3nccc(-c4ccnnc4)c3c2)cc1NS(=O)(=O)c1ccc(F)cc1F — IC50 (rep nsp14; methyltransferase activity, inhibitor, RapidFire MS, refers to: SAH): 5.5 to 55 µM
ivermectin — IC50 (rep main protease; enzyme activity, inhibitor; SARS-CoV-2): 5.48 ± 0.75 µM
CC1CC(c2ccc(C(=O)O)cc2)=NN1c1ccc(C#N)c(Cl)c1 (stereo not shown) — IC50 (rep methyltransferase; enzyme activity, inhibitor): 5.01 µM
Oc1cc(O)cc(/C=C/c2ccc(O)c(O)c2)c1 — IC50 (rep methyltransferase; enzyme activity, inhibitor): 27.5 µM
Cc1nn(-c2ccc(Cl)cc2)c2c1C(c1ccc(Cl)cc1Cl)C(C#N)=C(N)O2 (stereo not shown) — IC50 (rep main protease; 3CL protease activity): 1.83 µM
CCC(C(=O)Nc1cc(NC2CCOCC2)ccc1C)n1cccc2nc(SCc3ccc(F)cc3)nc1-2 (stereo not shown) — IC50 (rep papain-like protease; enzyme activity, inhibitor): 0.672 µM
O=C(Nc1ccc2oc(=O)ccc2c1)c1ccc(-c2cccc([N+](=O)[O-])c2)o1 — IC50 (rep nsp13 helicase; helicase ATPase activity, inhibitor, Kinase-Glo luminescence): > 150 µM
O=C(OC[C@H]1OC(OC(=O)c2cc(O)c(O)c(O)c2)[C@H](OC(=O)c2cc(O)c(O)c(O)c2)[C@@H](OC(=O)c2cc(O)c(O)c(O)c2)[C@@H]1OC(=O)c1cc(O)c(O)c(O)c1)c1cc(O)c(O)c(O)c1 (stereo partly shown) — Kd (Spike glycoprotein; binding, biolayer interferometry): 6.69 µM
CCOC(=O)c1c(NC(=O)c2cc3ccccc3o2)sc(C)c1-c1ccccc1 — IC50 (rep methyltransferase; enzyme activity, inhibitor): 97.9 µM
NC(=S)N/N=C/c1ccc(C23CC4CC(CC(C4)C2)C3)cc1 — IC50 (rep nsp13 helicase; helicase ATPase activity, inhibitor, Kinase-Glo luminescence; 60 min, with: 2.5 µM ATP): > 200 µM
O=c1cc(-c2ccc(O)c(O)c2)oc2cc(O)cc(O)c12 — IC50 (rep methyltransferase; enzyme activity, inhibitor): 126 µM
CC(=O)[C@]1(O)Cc2c(O)c3c(c(O)c2[C@@H](O[C@H]2C[C@H](N)[C@H](O)[C@H](C)O2)C1)C(=O)c1ccccc1C3=O — IC50 (rep main protease; enzyme activity, inhibitor, FRET): 250 to 600 µM
CC1CC(c2ccc(O)cc2)=NN1c1ccc(C#N)c(Cl)c1 (stereo not shown) — IC50 (rep methyltransferase; enzyme activity, inhibitor): > 100 µM
CCC(C(=O)Nc1ccccn1)n1cccc2nc(SCc3ccc(F)cc3)nc1-2 (stereo not shown) — IC50 (rep papain-like protease; enzyme activity, inhibitor): > 20 µM
Cc1ccc2nc(N3C(=O)C(O)=C(C(=O)c4ccco4)C3c3ccc(O)cc3)sc2c1 (stereo not shown) — IC50 (rep nsp13 helicase; helicase ATPase activity, inhibitor, Kinase-Glo luminescence; 60 min, with: 2.5 µM ATP): 18 µM
O=[N+]([O-])[O-].[Ag+] — IC50 (rep main protease; enzyme activity, inhibitor): > 50 µM
CCC[C@@]1(CCc2ccccc2)CC(O)=C([C@H](CC)c2cccc(NS(=O)(=O)c3ccc(C(F)(F)F)cn3)c2)C(=O)O1 — IC50 (rep main protease; enzyme activity, inhibitor; with: fluorogenic substrate): 3.23 ± 0.14 µM
CCC[C@H](NC(=O)[C@H](CC(C)C)NC(=O)OCc1ccccc1)C(=O)C(=O)NCc1ccccc1 — IC50 (rep main protease; enzyme activity, inhibitor, FRET; pH 6.5): 64.5 µM
CCC(C(=O)Nc1cc(NC2CCOC2)ccc1C)n1cc(Br)cc2nc(SCc3ccc(F)cc3)nc1-2 (stereo not shown) — IC50 (rep papain-like protease; enzyme activity, inhibitor): 0.511 µM
CNC(=O)[C@@H](NC(=O)[C@H](CC(C)C)[C@H](O)C(=O)NO)C(C)(C)C — viability difference (C2C12; 10 µM, with: PB venom; relative to: venom alone): 13.8%
CC(=O)Oc1ccccc1C(=O)Nc1ncc([N+](=O)[O-])s1 — IC50 (rep methyltransferase; enzyme activity, inhibitor): > 100 µM
O=C(/C=C/c1ccc(O)c(O)c1/C=C/c1ccc(O)c(O)c1)O[C@H](Cc1ccc(O)c(O)c1)C(=O)O — Kd (Spike glycoprotein; binding, BLI): 8.08 µM
C[C@@H]1O[C@@H](O[C@@H]2[C@@H](O)[C@H](OCCc3ccc(O)c(O)c3)O[C@H](CO)[C@H]2OC(=O)/C=C/c2ccc(O)c(O)c2)[C@H](O)[C@H](O)[C@H]1O — IC50 (rep main protease; enzyme activity, inhibitor; with: fluorogenic substrate): 39.8 ± 1.69 µM
CC[C@H](C)[C@H](NC(=O)[C@H](CC(C)C)NC(=O)[C@H](Cc1c[nH]c2ccccc12)NC(=O)[C@H](CCC(N)=O)NC(=O)[C@@H](NC(=O)[C@H](Cc1ccccc1)NC(=O)[C@H](C)NC(=O)[C@H](CCCCNC(=O)COCCOCCNC(=O)COCCOCCNC(=O)CC[C@H](NC(=O)CCCCCCCCCCCCCCCCCCC(=O)O)C(=O)O)NC(=O)[C@H](CCC(N)=O)NC(=O)[C@H](C)NC(=O)[C@@H](NC(=O)[C@H](CCCCN)NC(=O)[C@H](CC(=O)O)NC(=O)[C@H](CC(C)C)NC(=O)C(C)(C)NC(=O)[C@@H](NC(=O)[C@H](CO)NC(=O)[C@H](Cc1ccc(O)cc1)NC(=O)[C@H](CC(=O)O)NC(=O)[C@H](CO)NC(=O)[C@@H](NC(=O)[C@H](Cc1ccccc1)NC(=O)[C@@H](NC(=O)CNC(=O)[C@H](CCC(=O)O)NC(=O)C(C)(C)NC(=O)[C@@H](N)Cc1ccc(O)cc1)[C@@H](C)O)[C@@H](C)O)[C@@H](C)CC)[C@@H](C)CC)C(C)C)C(=O)N[C@@H](C)C(=O)NCC(=O)NCC(=O)N1CCC[C@H]1C(=O)N[C@@H](CO)C(=O)N[C@@H](CO)C(=O)NCC(=O)N[C@@H](C)C(=O)N1CCC[C@H]1C(=O)N1CCC[C@H]1C(=O)N1CCC[C@H]1C(=O)N[C@@H](CO)C(N)=O — subjects with adverse event (refers to: treatment-emergent vessel puncture site bruise; healthy subjects; 0.5 mg, multiple ascending dose): 0%
Cc1c(S(=O)(=O)N2CCC(C)CC2)cc(C(=O)NCc2cccnc2N2CCC2)n1C — IC50 (rep nsp14; inhibitor): 0.044 µM
CC(=O)N[C@@H](CS)C(=O)O — IC50 (rep nsp13 helicase; helicase dsDNA unwinding, inhibitor; based on Bi content): > 150 µM
O=C1/C(=C/C=C/c2ccco2)SC(=S)N1c1ccc(O)cc1 — IC50 (rep nsp13 helicase; helicase ATPase activity, inhibitor, Kinase-Glo luminescence; 60 min, with: 2.5 µM ATP): 3 µM
CC(C)n1cc(C(=O)NC2CCCc3c2[nH]c2ccccc32)c2ccccc2c1=O (stereo not shown) — IC50 (rep methyltransferase; enzyme activity, inhibitor): 75.2 µM
Cc1cc(Nc2ncc(Cl)c(Nc3ccccc3S(=O)(=O)C(C)C)n2)c(OC(C)C)cc1C1CCNCC1 — IC50 (rep papain-like protease; inhibitor): 106 µM
O=C1NC(=S)N(C2CC2)C(=O)/C1=C/c1ccc2c(c1)CCN2CCCCl — IC50 (rep nsp13 helicase; helicase ATPase activity, inhibitor, Kinase-Glo luminescence): 29 µM
Cl.Cl.Cl.Cl.Cl.Cl.N.N.N.N.N.N.N.N.N.N.N.N.N.N.[O-2].[O-2].[Ru+3].[Ru+3].[Ru+4] — IC50 (rep methyltransferase; enzyme activity, inhibitor; pH 7.5): < 10 µM
Cc1ccc(NC2CNC2)cc1NC(=O)C(C)n1cccc2nc(SCc3ccc(F)cc3)nc1-2 (stereo not shown) — IC50 (rep papain-like protease; enzyme activity, inhibitor): 0.714 µM
O=C(CSc1nc2ccsc2c(=O)n1CC1CCC(C(=O)O)CC1)c1ccc(Cl)cc1 (stereo not shown) — IC50 (rep nsp13 helicase; helicase ATPase activity, inhibitor, Kinase-Glo luminescence): > 150 µM
CCn1c[n+](CC)c2ccc(OC)cc21.[Ag][I] — IC50 (rep main protease; enzyme activity, inhibitor): > 50 µM
N#C/C(=C\c1ccc(O)c([N+](=O)[O-])c1)c1nc2ccccc2s1 — IC50 (rep nsp13 helicase; helicase ATPase activity, inhibitor, Kinase-Glo luminescence): > 150 µM
Z-FA-FMK — IC50 (rep main protease; Gaussia luciferase reporter): 62.4 µM
CCn1ccc(-c2cc(-c3cnn(C)c3)cc([C@@H](C)NC(=O)c3ccccc3CCC(=O)NNC(=O)C34CC(C3)C4)c2)n1 — IC50 (rep papain-like protease; enzyme activity, inhibitor): > 10 µM
O=C1NC(=O)C(=Cc2ccc(-c3cc([N+](=O)[O-])ccc3O)o2)C(=O)N1 — IC50 (rep nsp13 helicase; helicase ATPase activity, inhibitor, Kinase-Glo luminescence; 60 min, with: 2.5 µM ATP): 10 µM
Cc1cc(C(=O)NC2CCCc3c2[nH]c2ccccc32)c2c(C)noc2n1 (stereo not shown) — IC50 (rep methyltransferase; enzyme activity, inhibitor): > 250 µM
CC[C@@]1(O)C[C@H](O[C@H]2C[C@H](N(C)C)[C@H](O[C@H]3C[C@H](O)[C@H](O[C@H]4CCC(=O)[C@H](C)O4)[C@H](C)O3)[C@H](C)O2)c2c(cc3c(c2O)C(=O)c2c(O)cccc2C3=O)[C@H]1C(=O)OC — IC50 (Replicase polyprotein 1ab, nsp12 RdRp (rep, Severe acute respiratory syndrome coronavirus 2, UniProt P0DTD1); RdRp-dependent reporter gene, GLuc reporter; HEK293T; 24 h): 0.383 µM
